Measurements from different studies.
Compare with care: the assays were run in different laboratories. “And” joins repeats or separate records; there may be more than shown. Numbers after ± are the reported error.
MT-CYB/UQCRFS1: MT-CYB/UQCRFS1 (Homo sapiens, UniProt P00156+P47985)
UniProt P00156, sequence (whole entry, looked up): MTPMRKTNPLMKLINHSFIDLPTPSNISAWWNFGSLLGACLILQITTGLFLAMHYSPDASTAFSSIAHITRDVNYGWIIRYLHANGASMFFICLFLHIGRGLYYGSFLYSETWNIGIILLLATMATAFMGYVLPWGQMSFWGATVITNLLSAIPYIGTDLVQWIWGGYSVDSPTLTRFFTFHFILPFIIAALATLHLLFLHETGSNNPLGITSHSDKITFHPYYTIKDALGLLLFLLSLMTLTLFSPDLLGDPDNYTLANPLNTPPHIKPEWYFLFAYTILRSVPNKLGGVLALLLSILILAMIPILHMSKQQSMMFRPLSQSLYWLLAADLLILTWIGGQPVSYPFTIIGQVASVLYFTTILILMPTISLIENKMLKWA
UniProt P47985, sequence (whole entry, looked up): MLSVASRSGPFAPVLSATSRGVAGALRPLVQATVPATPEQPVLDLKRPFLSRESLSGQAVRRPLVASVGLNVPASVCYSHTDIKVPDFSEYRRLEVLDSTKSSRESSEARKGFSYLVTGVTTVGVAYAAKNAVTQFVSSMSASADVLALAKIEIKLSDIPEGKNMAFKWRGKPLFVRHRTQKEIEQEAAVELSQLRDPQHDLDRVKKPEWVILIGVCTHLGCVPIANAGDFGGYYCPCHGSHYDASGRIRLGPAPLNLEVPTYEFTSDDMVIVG
Dehaloperoxidase B ferric: Dehaloperoxidase B, ferric (Amphitrite ornata, UniProt Q9NAV7)
KEAP1 Kelch domain: Kelch-like ECH-associated protein 1, Kelch domain (KEAP1, Homo sapiens, UniProt Q14145)
UniProt Q14145, sequence (whole entry, looked up): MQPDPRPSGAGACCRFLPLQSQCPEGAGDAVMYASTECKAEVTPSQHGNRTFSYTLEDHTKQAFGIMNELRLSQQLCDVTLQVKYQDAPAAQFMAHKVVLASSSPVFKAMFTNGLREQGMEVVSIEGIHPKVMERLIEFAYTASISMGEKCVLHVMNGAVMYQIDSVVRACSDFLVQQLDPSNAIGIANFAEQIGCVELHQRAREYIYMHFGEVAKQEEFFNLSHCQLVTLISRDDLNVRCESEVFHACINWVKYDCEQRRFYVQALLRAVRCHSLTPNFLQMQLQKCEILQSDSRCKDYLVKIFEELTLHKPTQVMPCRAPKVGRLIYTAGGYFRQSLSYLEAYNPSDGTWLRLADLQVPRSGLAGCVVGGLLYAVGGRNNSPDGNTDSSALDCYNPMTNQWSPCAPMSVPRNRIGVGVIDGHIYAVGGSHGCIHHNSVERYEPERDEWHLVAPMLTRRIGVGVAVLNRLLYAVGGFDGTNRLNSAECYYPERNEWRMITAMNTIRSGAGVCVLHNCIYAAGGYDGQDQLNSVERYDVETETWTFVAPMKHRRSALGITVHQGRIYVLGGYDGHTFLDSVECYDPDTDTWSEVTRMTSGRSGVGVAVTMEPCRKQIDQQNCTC
UniProt Q16774, sequence (whole entry, unmodified, looked up): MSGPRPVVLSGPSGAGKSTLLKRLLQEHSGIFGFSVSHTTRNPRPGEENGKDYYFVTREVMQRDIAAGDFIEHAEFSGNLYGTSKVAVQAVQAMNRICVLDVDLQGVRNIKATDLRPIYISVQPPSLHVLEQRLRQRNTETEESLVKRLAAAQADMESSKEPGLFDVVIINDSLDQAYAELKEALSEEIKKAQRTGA
UniProt Q64663, sequence (whole entry, unmodified, looked up): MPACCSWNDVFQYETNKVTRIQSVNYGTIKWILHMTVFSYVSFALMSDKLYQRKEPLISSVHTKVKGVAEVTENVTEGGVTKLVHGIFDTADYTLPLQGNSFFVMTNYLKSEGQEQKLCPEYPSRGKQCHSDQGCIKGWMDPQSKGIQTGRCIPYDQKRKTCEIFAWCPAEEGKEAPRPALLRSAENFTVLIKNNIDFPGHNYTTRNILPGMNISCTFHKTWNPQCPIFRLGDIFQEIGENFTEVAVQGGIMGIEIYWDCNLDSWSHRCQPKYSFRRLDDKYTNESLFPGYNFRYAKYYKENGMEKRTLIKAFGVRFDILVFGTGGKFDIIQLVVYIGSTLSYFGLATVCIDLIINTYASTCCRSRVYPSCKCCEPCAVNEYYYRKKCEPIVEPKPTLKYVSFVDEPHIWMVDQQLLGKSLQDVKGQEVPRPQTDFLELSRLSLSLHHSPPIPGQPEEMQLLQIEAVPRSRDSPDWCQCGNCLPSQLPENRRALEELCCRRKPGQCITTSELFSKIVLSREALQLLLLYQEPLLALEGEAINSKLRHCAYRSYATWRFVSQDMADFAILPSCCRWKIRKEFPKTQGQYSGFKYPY
UniProt P00441, sequence (whole entry, unmodified, looked up): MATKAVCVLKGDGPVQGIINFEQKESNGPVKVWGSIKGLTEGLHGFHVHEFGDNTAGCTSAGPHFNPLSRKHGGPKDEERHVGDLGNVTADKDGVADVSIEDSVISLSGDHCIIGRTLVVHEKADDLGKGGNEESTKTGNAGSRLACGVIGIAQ
UniProt P11388, sequence (whole entry, looked up): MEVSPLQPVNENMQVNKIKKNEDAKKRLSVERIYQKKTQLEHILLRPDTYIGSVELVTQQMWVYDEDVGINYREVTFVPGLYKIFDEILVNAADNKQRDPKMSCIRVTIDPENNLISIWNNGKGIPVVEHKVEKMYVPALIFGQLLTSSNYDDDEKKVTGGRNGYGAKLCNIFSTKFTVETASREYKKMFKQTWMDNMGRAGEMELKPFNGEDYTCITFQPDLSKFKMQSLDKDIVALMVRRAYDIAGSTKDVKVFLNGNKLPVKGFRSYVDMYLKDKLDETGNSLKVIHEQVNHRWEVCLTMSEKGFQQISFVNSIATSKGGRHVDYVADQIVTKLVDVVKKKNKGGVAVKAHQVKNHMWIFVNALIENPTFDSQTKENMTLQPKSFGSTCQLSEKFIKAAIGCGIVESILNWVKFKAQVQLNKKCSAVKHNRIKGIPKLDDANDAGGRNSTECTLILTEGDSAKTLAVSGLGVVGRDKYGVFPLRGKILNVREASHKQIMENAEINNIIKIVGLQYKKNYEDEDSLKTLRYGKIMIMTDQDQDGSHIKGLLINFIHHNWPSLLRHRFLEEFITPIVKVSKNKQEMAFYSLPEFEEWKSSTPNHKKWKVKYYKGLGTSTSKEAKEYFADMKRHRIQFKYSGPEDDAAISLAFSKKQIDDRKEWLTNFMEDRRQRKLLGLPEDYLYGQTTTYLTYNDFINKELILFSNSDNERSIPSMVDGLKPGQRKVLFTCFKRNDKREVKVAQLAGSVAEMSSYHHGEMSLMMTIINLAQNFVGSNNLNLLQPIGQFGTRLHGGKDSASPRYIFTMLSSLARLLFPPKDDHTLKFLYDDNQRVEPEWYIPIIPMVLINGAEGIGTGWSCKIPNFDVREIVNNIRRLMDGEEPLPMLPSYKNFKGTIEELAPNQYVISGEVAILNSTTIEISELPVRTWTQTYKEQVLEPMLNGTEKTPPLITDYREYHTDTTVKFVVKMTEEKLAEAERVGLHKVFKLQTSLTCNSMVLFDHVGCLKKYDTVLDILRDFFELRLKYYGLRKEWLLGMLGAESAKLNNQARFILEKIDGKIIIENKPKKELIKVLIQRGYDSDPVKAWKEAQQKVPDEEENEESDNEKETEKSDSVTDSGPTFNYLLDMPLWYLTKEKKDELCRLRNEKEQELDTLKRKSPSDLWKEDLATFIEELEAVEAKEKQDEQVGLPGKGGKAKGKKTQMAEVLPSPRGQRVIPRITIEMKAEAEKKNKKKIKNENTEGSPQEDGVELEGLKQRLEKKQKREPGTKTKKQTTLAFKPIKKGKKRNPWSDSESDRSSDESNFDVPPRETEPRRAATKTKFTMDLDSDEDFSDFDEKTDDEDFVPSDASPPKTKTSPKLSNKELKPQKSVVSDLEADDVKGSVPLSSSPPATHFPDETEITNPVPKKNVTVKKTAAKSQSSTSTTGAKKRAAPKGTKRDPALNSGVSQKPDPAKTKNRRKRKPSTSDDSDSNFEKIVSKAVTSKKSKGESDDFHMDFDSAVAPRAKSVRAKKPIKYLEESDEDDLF
UniProt Q12791, sequence (whole entry, looked up): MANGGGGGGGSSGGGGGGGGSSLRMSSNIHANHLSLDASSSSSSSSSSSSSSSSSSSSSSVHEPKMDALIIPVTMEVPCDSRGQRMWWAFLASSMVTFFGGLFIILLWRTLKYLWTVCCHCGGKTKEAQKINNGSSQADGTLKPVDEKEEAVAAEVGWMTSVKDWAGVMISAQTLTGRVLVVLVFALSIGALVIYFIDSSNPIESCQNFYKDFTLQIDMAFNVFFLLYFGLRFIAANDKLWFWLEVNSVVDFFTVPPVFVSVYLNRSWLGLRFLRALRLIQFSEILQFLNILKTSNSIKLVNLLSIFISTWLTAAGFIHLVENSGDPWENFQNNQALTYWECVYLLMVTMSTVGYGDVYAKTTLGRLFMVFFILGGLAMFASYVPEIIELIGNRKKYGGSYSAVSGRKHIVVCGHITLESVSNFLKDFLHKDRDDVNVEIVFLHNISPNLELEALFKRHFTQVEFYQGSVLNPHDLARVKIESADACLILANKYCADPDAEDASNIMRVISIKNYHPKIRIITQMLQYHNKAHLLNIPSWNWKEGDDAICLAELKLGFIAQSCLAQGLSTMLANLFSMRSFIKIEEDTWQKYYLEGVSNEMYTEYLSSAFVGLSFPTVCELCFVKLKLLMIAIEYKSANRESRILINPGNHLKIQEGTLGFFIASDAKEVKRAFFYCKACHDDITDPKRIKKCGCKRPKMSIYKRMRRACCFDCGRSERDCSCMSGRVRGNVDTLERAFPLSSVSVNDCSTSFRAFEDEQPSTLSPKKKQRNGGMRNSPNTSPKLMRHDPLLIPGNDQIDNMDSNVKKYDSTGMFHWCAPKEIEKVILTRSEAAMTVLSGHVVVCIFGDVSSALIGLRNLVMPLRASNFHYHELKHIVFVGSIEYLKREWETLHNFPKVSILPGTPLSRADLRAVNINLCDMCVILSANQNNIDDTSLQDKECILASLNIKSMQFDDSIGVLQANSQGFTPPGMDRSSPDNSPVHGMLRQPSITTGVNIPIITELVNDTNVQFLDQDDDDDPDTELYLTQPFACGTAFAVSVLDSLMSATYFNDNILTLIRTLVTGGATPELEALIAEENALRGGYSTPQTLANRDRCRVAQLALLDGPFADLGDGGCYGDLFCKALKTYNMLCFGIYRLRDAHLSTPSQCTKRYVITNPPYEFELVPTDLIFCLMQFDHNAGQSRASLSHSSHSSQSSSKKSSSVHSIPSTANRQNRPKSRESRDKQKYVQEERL

| SMILES | tested on | assay | test system | conditions | scale | measurement | value |
| --- | --- | --- | --- | --- | --- | --- | --- |
| COc1ccc2cc3[n+](cc2c1OC)CCc1cc2c(cc1-3)OCO2 | THP-1 | pyroptotic LDH release | – | 2 µM, 40 min, added: LPS then nigericin | – | inhibition | 2.32% |
| CC[C@@H](C)[C@@H](NC(=O)[C@@H](Cc1ccc(O)cc1)NC(=O)[C@H]1CCCN1C(=O)[C@@H](CCCNC(=N)N)NC(=O)[C@H](N)Cc1c[nH]cn1)C(=O)N[C@H](C)C(=O)N[C@H](Cc1c[nH]cn1)C(=O)N[C@H](CCCNC(=N)N)C(=O)N[C@@H](C(=O)N[C@H](Cc1ccc(O)cc1)C(=O)N[C@H](CO)C(=O)N[C@H](Cc1ccccc1)C(N)=O)C(C)C | Transferrin receptor protein 1 (Tfrc, Mus musculus, UniProt Q62351) | flow cytometry | DC2.4 | 48 h, pH 6, replicate 2, unit not given | baseline: 0 h | surface TFRC expression | 0.907 |
| CC[C@@H]1[C@H](F)C(=O)N[C@@H]1COc1nccc2cc(C(N)=O)c(OC)cc12 | VRK2 (Homo sapiens, UniProt Q86Y07) | ATP-site probe binding, ActivX profiling | THP-1 cell lysate | 0.04 mM, Lys2 site | – | inhibition | -6% |
| NC(=O)NOCCCCCCCCCCCCCCCCCCCC[P+](c1ccccc1)(c1ccccc1)c1ccccc1.O=C([O-])C(F)(F)F | MT-CYB/UQCRFS1 | complex III-dependent respiration, Seahorse XF96 | HCT-116 | 0.2 µM, 24 h | baseline: control | oxygen consumption rate | 101% |
| O=C1Nc2ccc(Br)cc2C1O (centres unmarked) | Dehaloperoxidase B ferric | product, HPLC | – | added: 5-bromoindole 500 µM, H2O2 100 µM | – | share of total products | 7.7% |
| O=C(COP(=O)(O)O)[C@@H](O)[C@H](O)[C@H](O)COP(=O)(O)O | CTSC (Homo sapiens, UniProt P53634) | thermal proteome profiling | HepG2 cell lysate | concentration not given, 57 over 37 °C, mean | baseline: compound over control | thermal stability ratio | 1.6 |
| CC(C)CC(=O)N[C@H](C(=O)N[C@H](C(=O)N[C@@H](CC(C)C)[C@@H](O)CC(=O)N[C@@H](C)C(=O)N[C@@H](CC(C)C)[C@@H](O)CC(=O)NCCCC[C@H](NC(=O)CCOCCOCCNC(=O)CN1CCN(CC(=O)O)CCN(CC(=O)O)CC1)C(=O)O)C(C)C)C(C)C | Cathepsin D (CTSD, Homo sapiens, UniProt P07339) | surface plasmon resonance | – | – | – | dissociation rate constant | 0.000215 s⁻¹ |
| O=C(O)C1CCCNC1 (centres unmarked) | SLC6A6 (Homo sapiens, UniProt P31641, Y138A) | binding, microscale thermophoresis | – | 30.5 nM, room temperature, added: 50 nM labelled protein | higher = more binding | normalised MST signal | -0.0944 |
| Cn1c(SCc2ccccc2Cl)nc(=O)c2c1NC(=O)CC2c1cccc(O)c1 (centres unmarked) | Protein lin-28 homolog A (Mus musculus, UniProt Q8K3Y3) | – | – | – | – | Hill slope | -1.8 |
| CC[C@H](C)[C@H](NC(=O)[C@@H]1CCCN1C(=O)[C@H](CC(C)C)NC(=O)[C@H](Cc1ccccc1)NC(=O)[C@H](CCC(=O)O)NC(=O)CNC(=O)[C@@H](NC(=O)[C@H](CCC(=O)O)NC(=O)[C@H](CCC(=O)O)NC(=O)[C@H](CC(=O)O)NC(=O)[C@H](CC(C)C)NC(=O)[C@H](CCC(N)=O)NC(=O)[C@H](CC(C)C)NC(=O)[C@H](CCC(N)=O)NC(=O)[C@H](C)NC(=O)[C@H](Cc1ccccc1)NC(C)=O)[C@@H](C)O)C(=O)N[C@@H](CCC(N)=O)C(=O)N1CCC[C@H]1C(=O)N[C@@H](C)C(=O)N[C@@H](CCC(N)=O)C(N)=O | KEAP1 Kelch domain | binding, ITC | – | pH 7, 298.15 K | – | ΔH | -17.56 ± 0.046 kcal/mol |
| O=C(O)/C=C/c1ccc(O)c(O)c1 | KEAP1 (Homo sapiens, UniProt Q14145) | native mass spectrometry | – | 1:5 protein:compound ratio, 30 min | – | hexamer abundance | decreased |
| CCc1cnn2c(NCc3ccc[n+]([O-])c3)cc(N3CCCC[C@H]3CCO)nc12 | BRD4 (Homo sapiens, UniProt O60885) | 19F NMR, refers to: tyrosine 65 | – | 186 µM | baseline: free protein | chemical shift change | 0.081 ppm |
| CCCCC[C@H](O)/C=C/[C@H]1[C@H](O)CC(=O)[C@@H]1C/C=C\CCCC(=O)O | PTGER1 (Homo sapiens, UniProt P34995, C136A) | IP1 accumulation, agonist | AD293 | 1 h, EP1 C136A mutant | – | Emax | 85 ± 7.5% |
| CO/N=C(\C(=O)N[C@@H]1C(=O)N2C(C(=O)O)=CCS[C@H]12)c1csc(N)n1 | THP-1 | pyroptotic LDH release | – | 2 µM, 40 min, added: LPS then nigericin | – | inhibition | 9.33% |
| CC1=C(/C=C/C(C)=C/C=C/C(C)=C/C=O)C(C)(C)CCC1 | Rhodopsin (RHO, Bos taurus, UniProt P02699, G270A) | retinal entry, Trp FRET | lipid bicelles | 28 °C, G270A mutant | baseline: wild-type rhodopsin | relative kon | 1.01 ± 0.08 |
| Cc1cccc(N(O)N=Nc2ccc(S(=O)(=O)Nc3onc(C)c3C)cc2)c1 | α-glucosidase, rat intestine | enzyme activity | – | 240 µg/mL, added: 4-nitrophenyl α-D-glucopyranoside | – | inhibition | 42.5 ± 1.26% |

| SMILES | tested on | assay | test system | conditions | scale | measurement | value |
| --- | --- | --- | --- | --- | --- | --- | --- |
| O=CNc1ccc(Br)cc1C=O | Dehaloperoxidase B ferric | product, HPLC | – | 5 min, pH 7, 25 °C, enzyme 10 µM, added: 5-bromoindole and H2O2 500 µM each | – | product formed | 1.7 M |
| NC(=O)NO | MT-CYB/UQCRFS1 | complex III-dependent respiration, Seahorse XF96 | HCT-116 | 1000 µM, 24 h | baseline: control | oxygen consumption rate | 93.1 ± 5.34% |
| O=c1nc(SCc2cc(F)cc(C(F)(F)F)c2)nc(SCc2ccc3nc(Cl)ccc3c2)[nH]1 | TOP2A (Homo sapiens, UniProt P11388) | ATPase activity | – | 7.8 µM, added: ATP 0.25 mM | – | ATP hydrolysis rate | 0.197 µM/min and 1.64 µM/min |
| [O-][S+]1CCCCS1 (centres unmarked) | SOD1 (Homo sapiens, UniProt P00441, G94A) | intact protein LC-MS | SOD1 G93A transgenic mice, whole blood | intravenous, 10 mg/kg, 1 h | – | target engagement | 63% and 60.7% |
| Cc1ccc(N2CC(C(N)=O)CC2=O)cc1 (centres unmarked) | YTHDF2 (Homo sapiens, UniProt Q9Y5A9) | binding, affinity selection mass spectrometry | – | – | baseline: other proteins in batch | fold enrichment | 1 |
| CN1CCN(c2cc(-c3ccncc3)c(-c3ccc4ccccc4c3)nn2)CC1 | CXCR2 (Homo sapiens, UniProt P25025) | agonist, FLIPR | – | 12.5 µM | – | activation | -0.2% |
| CC(=C/C(=O)O)/C=C/C=C(\C)C1C=C2C(C)(C)CCCC2(C)O1 (centres unmarked) | Rhodopsin (RHO, Homo sapiens, UniProt P08100, E181K) | immunostaining, refers to: opsin | COS-7 transfected | 1.00 µM, unit not given | baseline: surface over total stained cells | plasma membrane localization | 0.66 |
| CC(=O)N[C@@H](C)C(=O)N[C@@H](CC(N)=O)C(=O)NCC(=O)N[C@@H](CC(N)=O)C(=O)N[C@@H](C)C(=O)N[C@@H](CC(N)=O)C(=O)N[C@@H](CCC(=O)O)C(=O)N[C@@H](CCC(=O)O)C(=O)N[C@@H](CC(N)=O)C(=O)NCC(=O)N[C@@H](CCC(=O)O)C(=O)N[C@@H](CCC(N)=O)C(=O)N[C@@H](CCC(=O)O)C(=O)N[C@@H](C)C(=O)N[C@@H](CC(=O)O)C(=O)N[C@@H](CC(N)=O)C(=O)N[C@@H](CCC(=O)O)C(=O)N[C@H](C(=O)N[C@@H](CC(=O)O)C(N)=O)C(C)C | KEAP1 Kelch domain | ITC | – | concentration not given | – | binding stoichiometry | 1.04 |
| Nc1ncnc2c1ncn2[C@@H]1O[C@H](COP(=O)(O)OP(=O)(O)OP(=O)(O)O)[C@@H](O)[C@H]1O | P2X purinoceptor 7 (P2rx7, Rattus norvegicus, UniProt Q64663, I214G) | ion current, agonist, two-electrode voltage clamp | Xenopus laevis oocytes | 2700 µM | baseline: highest concentration response | normalized current | 1 |
| CN(C)C(=O)C(CCN1CCC(O)(c2ccc(Cl)cc2)CC1)(c1ccccc1)c1ccccc1 | Calcium-activated potassium channel subunit alpha-1, with LRRC26 γ1 subunit (KCNMA1, Homo sapiens, UniProt Q12791) | BK current, inside-out patch clamp | excised membrane patch | 1 µM, γ1 subunit coexpressed, added: nominally 0 Ca2+ cytosolic | – | effective gating valence | 1.32 elementary charges |
| N[C@H]1[C@H](O[C@H]2[C@H](O)[C@@H](N)[C@H](O[C@H]3[C@H](O)[C@@H](N)[C@H](O[C@H]4[C@H](O)[C@@H](N)C(O)O[C@@H]4CO)O[C@@H]3CO)O[C@@H]2CO)O[C@H](CO)[C@@H](O)[C@@H]1O (some centres unmarked) | LysM receptor-like kinase (Brachypodium distachyon, UniProt A0A0Q3FRN3) | radioligand binding, competition binding | membrane fractions | 2 µM, added: radiolabelled LCO-V(C18:1,NMe) | – | competition of LCO binding | 0% and 3.19% and 0.3% |
| CC(C)C[C@@H](C=O)NC(=O)[C@H](CC(C)C)NC(=O)[C@H](CC(C)C)NC(=O)OCc1ccccc1 | Protein transport protein Sec61 subunit alpha isoform 1 (Homo sapiens, UniProt P61619) | Sec61-dependent translocation, inhibitor, refers to: CD4 signal peptide-FLuc reporter | HEK293 | concentration not given, 6 h | baseline: mock | FLuc/RLuc ratio | 1.15 |
| CCCN(O)N=Nc1ccc(S(=O)(=O)Nc2cc(C)on2)cc1 | α-glucosidase, rat intestine | enzyme activity | – | 180 µg/mL, added: 4-nitrophenyl α-D-glucopyranoside | – | inhibition | 45 ± 1.68% |
| NC(=O)NOCCCCCCCCCCCCCCCC[P+](c1ccccc1)(c1ccccc1)c1ccccc1.O=C([O-])C(F)(F)F | MT-CYB/UQCRFS1 | complex III-dependent respiration, Seahorse XF96 | HCT-116 | 1 µM, 24 h | baseline: control | oxygen consumption rate | 64.7% |
| Nc1nc2c(ncn2[C@@H]2O[C@H](COP(=O)(O)O)[C@@H](O)[C@H]2O)c(=O)[nH]1 | GUK1 (Homo sapiens, UniProt Q16774) | ITC | – | concentration not given, added: 150 mM KCl | – | ΔG of binding | -7.06 kcal/mol and -7.01 kcal/mol |
| Oc1ccccc1-c1n[nH]cc1-c1ccnc2ccccc12 | TGFBR1 (Homo sapiens, UniProt P36897) | – | – | – | baseline: IC50 on target over Yck2 | selectivity ratio | 21 |

Some of these lines once more:
| SMILES | tested on | assay | test system | conditions | scale | measurement | value |
| --- | --- | --- | --- | --- | --- | --- | --- |
| CC[C@H](C)[C@H](NC(=O)[C@@H]1CCCN1C(=O)[C@H](CC(C)C)NC(=O)[C@H](Cc1ccccc1)NC(=O)[C@H](CCC(=O)O)NC(=O)CNC(=O)[C@@H](NC(=O)[C@H](CCC(=O)O)NC(=O)[C@H](CCC(=O)O)NC(=O)[C@H](CC(=O)O)NC(=O)[C@H](CC(C)C)NC(=O)[C@H](CCC(N)=O)NC(=O)[C@H](CC(C)C)NC(=O)[C@H](CCC(N)=O)NC(=O)[C@H](C)NC(=O)[C@H](Cc1ccccc1)NC(C)=O)[C@@H](C)O)C(=O)N[C@@H](CCC(N)=O)C(=O)N1CCC[C@H]1C(=O)N[C@@H](C)C(=O)N[C@@H](CCC(N)=O)C(N)=O | KEAP1 Kelch domain | binding, ITC | – | pH 7, 298.15 K | – | ΔH | -17.56 ± 0.046 kcal/mol |
| Nc1nc2c(ncn2[C@@H]2O[C@H](COP(=O)(O)O)[C@@H](O)[C@H]2O)c(=O)[nH]1 | GUK1 (Homo sapiens, UniProt Q16774) | ITC | – | concentration not given, added: 150 mM KCl | – | ΔG of binding | -7.06 kcal/mol and -7.01 kcal/mol |
| CC(C)CC(=O)N[C@H](C(=O)N[C@H](C(=O)N[C@@H](CC(C)C)[C@@H](O)CC(=O)N[C@@H](C)C(=O)N[C@@H](CC(C)C)[C@@H](O)CC(=O)NCCCC[C@H](NC(=O)CCOCCOCCNC(=O)CN1CCN(CC(=O)O)CCN(CC(=O)O)CC1)C(=O)O)C(C)C)C(C)C | Cathepsin D (CTSD, Homo sapiens, UniProt P07339) | surface plasmon resonance | – | – | – | dissociation rate constant | 0.000215 s⁻¹ |
